Published values pooled from the literature.
Several values in a cell are separate wells, animals, samples, runs or records. ± gives the spread as reported.

| Molecule | test | system | setting | how to read | endpoint | result |
| --- | --- | --- | --- | --- | --- | --- |
| C[C@]12CC[C@@H]3c4ccc(O)cc4CC[C@H]3[C@@H]1C[C@@H](O)[C@@H]2O | GC-MS | breast cancer women on NSAI, serum | vaginal, 0.03 mg daily, 3 h, day 28 | – | median serum concentration | 0 ng/mL |
| CC(C)Cc1ccc(C(C)C(=O)O)cc1 (racemic) | – | pig, abdominal skin | dose not given, 24 h, pH 7.4, 32 °C, donor 70% ethanol, 0.5 mm dermatomed | – | cumulative permeated amount | 303 ± 3.63 µg/cm2 |
| CCc1ccccc1-c1ccc2c(c1)C1(Nc3ccccc3C(=O)N1c1ccc(C)cc1)C(=O)N2C (centres unmarked) | shake flask | aqueous buffer | pH 7.4 | – | logD | 4.9 |
| CC1=CC(c2ccccc2)=NS(=O)(=O)N1 | HPLC | PVC/DOS polymer film-water | neutral form | – | log P | 1.04 ± 0.02 |
| CO[C@H]1C[C@@H]2CC[C@@H](C)[C@@](O)(O2)C(=O)C(=O)N2CCCC[C@H]2C(=O)O[C@H]([C@H](C)C[C@@H]2CC[C@@H](O)[C@H](OC)C2)CC(=O)[C@H](C)/C=C(\C)[C@@H](O)[C@@H](OC)C(=O)[C@H](C)C[C@H](C)/C=C/C=C/C=C/1C | LC-MS/MS | healthy dogs, whole blood | oral, 0.1 mg/kg once daily, 5 days | – | AUC(0-48h) | 126 ± 27.1 ng·h/mL |
| CCN(CC)C(=S)SSC(=S)N(CC)CC | shake-flask | PEG400 | 37 °C | – | thermodynamic solubility | 69.6 ± 3.26 mg/g |
| CC[C@H](C)[C@H](NC(=O)[C@H](Cc1ccccc1)NC(=O)[C@H](CCC(=O)O)NC(=O)[C@H](CCCCNC(=O)COCCOCCNC(=O)COCCOCCNC(=O)CC[C@H](NC(=O)CCCCCCCCCCCCCCCCC(=O)O)C(=O)O)NC(=O)[C@H](C)NC(=O)[C@H](C)NC(=O)[C@H](CCC(N)=O)NC(=O)CNC(=O)[C@H](CCC(=O)O)NC(=O)[C@H](CC(C)C)NC(=O)[C@H](Cc1ccc(O)cc1)NC(=O)[C@H](CO)NC(=O)[C@H](CO)NC(=O)[C@@H](NC(=O)[C@H](CC(=O)O)NC(=O)[C@H](CO)NC(=O)[C@@H](NC(=O)[C@H](Cc1ccccc1)NC(=O)[C@@H](NC(=O)CNC(=O)[C@H](CCC(=O)O)NC(=O)C(C)(C)NC(=O)[C@@H](N)Cc1cnc[nH]1)[C@@H](C)O)[C@@H](C)O)C(C)C)C(=O)N[C@@H](C)C(=O)N[C@@H](Cc1c[nH]c2ccccc12)C(=O)N[C@@H](CC(C)C)C(=O)N[C@H](C(=O)N[C@@H](CCCNC(=N)N)C(=O)NCC(=O)N[C@@H](CCCNC(=N)N)C(=O)NCC(=O)O)C(C)C | – | healthy Chinese subjects, plasma | subcutaneous, 0.5 mg once weekly | – | average steady-state concentration | 23.8 nmol/L |
| Cn1c(-c2ccc(C(N)=O)cc2F)nnc1C(C)(C)Oc1c(F)cc(Cl)cc1F | – | healthy young Japanese subjects, plasma | oral, 50 mg once daily, day 18, 14 days dosing | – | half-life mean | 1.04 days |
| Cc1cc(Nc2ncc(Cl)c(Nc3ccccc3S(=O)(=O)C(C)C)n2)c(OC(C)C)cc1C1CCNCC1 | item: total drug | human, plasma | oral, 450 mg/day with food, after daily dose 9 | – | AUC(tau) at steady state | 22.5 µM·h |
| COc1ccc(-c2coc3cc(O)ccc3c2=O)cc1 | mass spectrometry | Caco-2 | 40 µM, 6 h | – | Papp A→B | 23.8 ×10⁻⁶ cm/s |
| Nc1ncn([C@H]2C[C@H](O)[C@@H](CO)O2)c(=O)n1 | – | male CD-1 mice, plasma | oral, 167 mg/kg THU + 0.2 mg/kg, day 58 | – | AUC(0-180) | 1.14 µM·h |
| O=[N+]([O-])c1ccc(CNc2nc(NCc3cccc(C(F)(F)F)c3)nc3[nH]cnc23)cc1 | – | chow-fed mice, liver, muscle, adipose tissue | intraperitoneal, 20 mg/kg, 6 h | – | tissue concentration | 10 to 25 µM |
| CCCC[C@H](NC(=O)CN1CCN(CC(=O)O)CCN(CC(=O)O)CCN(CC(=O)O)CC1)C(=O)N[C@H]1CC(=O)NCCCC[C@@H](C(N)=O)NC(=O)[C@H](Cc2c[nH]c3ccccc23)NC(=O)[C@H](CCCNC(=N)N)NC(=O)[C@@H](Cc2ccccc2)NC(=O)[C@H](Cc2c[nH]cn2)NC1=O [indium-111 labelled] | – | female C57 mice, B16/F1 melanoma, urine | intravenous, 0.037 MBq, 24 h | – | excreted dose | 87.3 ± 3.6% |
| Cc1nc2cccc(OCC(C)(C)C(=O)NC(C)C)c2c(N)c1C(=O)O | – | Crl:CD(SD) rat, male, plasma | oral gavage, 10 mg/kg, day 7 | – | AUC(0-last) | 48.1 ± 33.2 ng·h/mL |
| CC[C@H](C)CCCCC(=O)N[C@@H](CCN)C(=O)N[C@H](C(=O)N[C@@H](CCN)C(=O)N[C@H]1CCNC(=O)[C@H]([C@@H](C)O)NC(=O)[C@H](CCN)NC(=O)[C@H](CCN)NC(=O)[C@H](CC(C)C)NC(=O)[C@@H](Cc2ccccc2)NC(=O)[C@H](CCN)NC1=O)[C@@H](C)O | UPLC-MS/MS | intensive care patients Overall, plasma | iv, dose not given, 6 h post-dose, steady state, polymyxin B dosing | – | mid-interval concentration | 3000 ± 1100 ng/mL |
| O=C1Cc2cc(CCN3CCN(c4nsc5ccccc45)CC3)c(Cl)cc2N1 | – | male Hartley guinea pig, anaesthetized | intravenous infusion, 1 mg/kg, 10 min infusion | relative to: baseline | QTc change | 9.1 ± 1% |
| C/C=C/C=C/C=C/CC/C=C/C(=O)NCC(C)(C)O | – | rat, small intestine site 4 contents | oral, dose not given, 4 h, β-glucuronidase treated | relative to: ingested amount | recovery | 0.01% |
| O=C(Nc1ccc([N+](=O)[O-])cc1Cl)c1cc(Cl)ccc1O | shake-flask | soybean oil | 37 °C | – | thermodynamic solubility | 1.38 ± 0.11 mg/g |
| O=C(c1cccc(/N=N/c2cccc(OCCCN3CCCCC3)c2)c1)N1CCCC1 | – | Tris-HCl buffer, 1% DMSO-d6 | 25 µM, pH 7.4, 20 ± 3 °C | – | cis isomer thermal half-life | 114 days |
| COc1ccc(/C=C\c2cc(OC)c(OC)c(OC)c2)cc1OP(=O)(O)O | – | Sprague-Dawley rat, plasma | intravenous, 28 mg/kg | – | AUC(0-τ) | 12500 ± 1540 ng·h/mL |
| CC[C@H](C)[C@H](NC(=O)[C@H](CC(C)C)NC(=O)[C@H](Cc1c[nH]c2ccccc12)NC(=O)[C@H](C)NC(=O)[C@@H](NC(=O)[C@H](Cc1ccccc1)NC(=O)[C@H](CC(=O)O)NC(=O)[C@H](CCCNC(=N)N)NC(=O)[C@H](C)NC(=O)[C@H](C)NC(=O)[C@H](CC(C)C)NC(=O)[C@H](C)NC(=O)[C@H](CC(=O)O)NC(=O)[C@H](CC(C)C)NC(=O)[C@@H](NC(=O)[C@@H](NC(=O)[C@H](C)NC(=O)[C@H](CC(C)C)NC(=O)[C@H](CCC(=O)O)NC(=O)[C@H](CO)NC(=O)[C@H](CO)NC(=O)[C@H](Cc1ccccc1)NC(=O)[C@@H](NC(=O)CNC(=O)[C@H](CCC(=O)O)NC(=O)CNC(=O)[C@@H](N)Cc1cnc[nH]1)[C@@H](C)O)[C@@H](C)O)[C@@H](C)CC)[C@@H](C)CC)C(=O)N[C@@H](C)C(=O)N[C@H](C(=O)N[C@@H](CCCCN)C(=O)N[C@H](C(=O)N[C@H](C(=O)N[C@@H](CC(=O)O)C(=O)N[C@@H](CCCCN)C(=O)N[C@@H](CCCCN)C(=O)N[C@@H](CCCCN)C(=O)N[C@@H](CCCCN)C(=O)N[C@@H](CCCCN)C(=O)N[C@@H](CCCCN)C(N)=O)[C@@H](C)O)[C@@H](C)CC)[C@@H](C)O | immunoaffinity LC-MS/MS | healthy human subjects, plasma | intravenous infusion, 1 mg single dose, infused over 15 min | – | AUClast | 0.0371 µM·h |

| Molecule | test | system | setting | how to read | endpoint | result |
| --- | --- | --- | --- | --- | --- | --- |
| CS(=O)(=O)n1cc2c(n1)CN([C@H]1CO[C@H](c3cc(F)ccc3F)[C@@H](N)C1)C2 | – | male human, urine | oral, 200 mg, single dose, fasted, healthy volunteers | – | renal clearance | 45 mL/min |
| CCCC[C@@H]1NC(=O)[C@@H](NC(=O)[C@H](CCC(=O)O)NC(=O)CNC(=O)CN2CCN(CC(=O)O)CCN(CC(=O)O)CCN(CC(=O)O)CC2)CCCCNC(=O)C[C@@H](C(N)=O)NC(=O)[C@H](C(C)C)NC(=O)[C@@H]2CCCN2C(=O)[C@H](CCCNC(=N)N)NC(=O)CNC(=O)[C@H](Cc2c[nH]c3ccccc23)NC(=O)[C@H](CCCNC(=N)N)NC(=O)[C@@H](Cc2ccccc2)NC(=O)[C@H](Cc2c[nH]cn2)NC(=O)[C@H](CCC(=O)O)NC1=O [indium-111 labelled] | – | normal C57 mice, pancreas | intravenous, 0.037 MBq, 24 h | – | tissue uptake | 0.06 ± 0.01 %ID/g |
| Cc1cc(-c2ccc(/N=N/c3c(S(=O)(=O)O)cc4cc(S(=O)(=O)O)cc(N)c4c3O)c(C)c2)ccc1/N=N/c1c(S(=O)(=O)O)cc2cc(S(=O)(=O)O)cc(N)c2c1O | dynamic light scattering | 50 mM potassium phosphate | pH 7.0 | – | critical aggregation concentration | 30 µM |
| CN[C@H](CC(C)C)C(=O)N[C@H]1C(=O)N[C@@H](CC(N)=O)C(=O)N[C@H]2C(=O)N[C@H]3C(=O)N[C@H](C(=O)N[C@H](C(=O)O)c4cc(O)cc(O)c4-c4cc3ccc4O)[C@H](O)c3ccc(c(Cl)c3)Oc3cc2cc(c3O[C@@H]2O[C@H](CO)[C@@H](O)[C@H](O)[C@H]2O[C@H]2C[C@](C)(N)[C@H](O)[C@H](C)O2)Oc2ccc(cc2Cl)[C@H]1O | – | pig, plasma | intravenous, 1000 mg, with: MIC 8 µg/mL | – | time to reach MIC | 7 min |
| COc1ccc(Cl)cc1C(=O)NCCc1ccc(S(=O)(=O)NC(=O)NC2CCCCC2)cc1 | shake-flask | polysorbate 80 | 37 °C | – | thermodynamic solubility | 10.5 ± 0.22 mg/g |
| RWRTNF | substrate, gel electrophoresis | peptide, mouse, PyMT tumour, PyMT tumour tissue extract | 5 µM, 16 h, 37 °C, 2% extract, 1 mM ZnCl2 | – | peptide cleavage | > 90% and > 80% |
| Cn1c(=O)[nH]c2[nH]c(=O)n(C)c2c1=O | – | human hemodialysis patients, plasma | pre-treatment | relative to: hemodialysis over normal subjects | total plasma concentration ratio | 7 |
| COC(=O)C[C@](O)(CCCC(C)(C)O)C(=O)O[C@@H]1C(OC)=C[C@]23CCCN2CCc2cc4c(cc2[C@H]13)OCO4 | – | CD1 mice, esophagus | oral, 1 mg/kg, 8 h | – | tissue concentration | not detected |
| CC(=O)[C@H]1CC[C@H]2[C@@H]3CCC4=CC(=O)CC[C@]4(C)[C@H]3CC[C@]12C | shake-flask | polysorbate 80 | 37 °C | – | thermodynamic solubility | 28.3 ± 2.19 mg/g |
| Cc1cccc(C)c1N(CC(=O)Nc1ccc(-c2ncon2)cc1)C(=O)C1CCS(=O)(=O)CC1 | – | human, urine | oral, 200 mg | relative to: dose | urinary excretion unchanged | 10.5% |
| CCCCC/C=C/C(=O)CCc1ccc(O)c(OC)c1 | – | rat, small intestine site 4 contents | oral, dose not given, 2 h, β-glucuronidase treated | relative to: ingested amount | recovery | 0.6% |
| Oc1ccc2c3c(cnc2c1)-c1ccc(C(F)(F)F)cc1O[C@@H]3c1ccc(OCCN2CC(CF)C2)cc1 | – | healthy postmenopausal women, plasma | oral solution, 400 mg [14C]-labelled, single dose, fasted | arithmetic mean | AUC0‐∞ of total radioactivity | 18900 ng·h eq/mL |
| CC(C)(Oc1ccc(C(=O)c2ccc(Cl)cc2)cc1)C(=O)O | shake-flask | soybean oil | 37 °C | – | thermodynamic solubility | 0.8 ± 0.05 mg/g |
| O=C(CCCN1CC=C(n2c(=O)[nH]c3ccccc32)CC1)c1ccc(F)cc1 | – | male Hartley guinea pig, anaesthetized | intravenous infusion, 0.1 mg/kg, 10 min infusion | relative to: baseline | QTc change | 6.7 ± 2.3% |
| C=CC(=O)Nc1cc(Nc2nccc(-c3cn(C)c4ccccc34)n2)c(OC)cc1N(C)CCN(C)C | item: AEs possibly related to any treatment | EGFR-mutant MET-altered NSCLC patients | oral, dose not given, all | – | AEs leading to discontinuation | 11% |
| Cc1ncnc2c1c(Cl)cn2[C@@H]1O[C@H](CO)[C@@H](O)[C@H]1O | metabolic stability | mouse, liver microsomes | 15 min | – | compound remaining | 99% |
| Cc1ccc(N2CCN(CC(O)COc3ccccc3C(=O)CCc3ccccc3)CC2)cc1 (centres unmarked) | metabolic stability | female mouse, liver microsomes | 20 µM, pH 7.4 | – | scaled CLint | 30.4 mL/min/kg |
| COC1=CC(=O)C[C@@H](C)[C@]12Oc1c(Cl)c(OC)cc(OC)c1C2=O | shake-flask | soybean oil | 37 °C | – | thermodynamic solubility | 0.5 ± 0.06 mg/g |
| acyl ghrelin (human) | – | wild-type mice, olfactory bulb | intravenous, dose not given, 10 min, vascular space corrected | – | tissue/serum ratio | 10.2 µL/g |
| CC1(C)Oc2cc3oc(=O)ccc3cc2C[C@@H]1O | – | CD-1 mouse, male | oral gavage, 80 mg/kg daily, 4 weeks, subchronic safety study | – | body weight | 36.5 ± 1.71 g |
